Measured values gathered from unrelated publications.
Numbered parts are unrelated; each lists some results of a single study. Changes are numbered by the printed parent chain.

Study 1 — method: protein-binding microarray; form: double-stranded DNA, one strand shown; medium: in vitro; tested at: 2540 nM top; notes: 60-bp whole probe; added: salmon DNA 0.4 mg/ml; baseline: random background probes; reading: higher = stronger binding; quantity: fitted relative affinity; constant ends, left off below: GCCTAGCAC … GTCTTGATTCGCTTGACGCTGCTG
Target: Interferon regulatory factor 3, full length, phosphomimetic (IRF3, Homo sapiens, UniProt Q14653, residues 1-427, S386D/S396D/S398D/S402D/T404D/S405D)
Sequence of UniProt Q14653 (whole entry, unmodified, looked up): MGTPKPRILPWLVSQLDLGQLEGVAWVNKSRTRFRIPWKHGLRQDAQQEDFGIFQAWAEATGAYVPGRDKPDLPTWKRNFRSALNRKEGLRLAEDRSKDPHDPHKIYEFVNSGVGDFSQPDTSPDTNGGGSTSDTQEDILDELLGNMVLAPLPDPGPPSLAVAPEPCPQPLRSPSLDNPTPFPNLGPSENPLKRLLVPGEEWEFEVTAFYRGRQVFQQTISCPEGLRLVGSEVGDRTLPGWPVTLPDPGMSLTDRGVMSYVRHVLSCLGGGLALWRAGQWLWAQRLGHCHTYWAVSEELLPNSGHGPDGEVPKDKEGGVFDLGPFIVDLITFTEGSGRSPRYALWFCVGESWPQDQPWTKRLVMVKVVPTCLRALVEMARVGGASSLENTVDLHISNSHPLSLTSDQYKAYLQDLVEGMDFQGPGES
CTTCTCCTCTAGGTTCTCTGAGTGCTA: 3.34 z-score
TTAAATCTCAGTTTCGATTAGTGCTAG: 3.98 z-score
GACGGACTGGGACTGGGCACGTGCTAG: -0.933 z-score
TCATGTCTGTTTTTGCTACTGTGCTAG: 0.885 z-score
GACGATCTCAATTTCGAGACGTGCTAG: 1.36 z-score
GACGAACTGAGAGTGGAGACGTGCTAG: -0.307 z-score
TTAGATCTCAGTATCCATTAGTGCTAG: 1.54 z-score
GACGGTTTCGGTTTGGGGACGTGCTAG: 8.69 z-score
TTAGAACAGGGGTTTCGATTAGTGCTA: 1.57 z-score
TTAGTTATCAGACTGGATTAGTGCTAG: 0.603 z-score
TTAGATTTCAGTTCCGATAAGTGCTAG: 3.66 z-score
GACGAACCGAGTATCGAGACGTGCTAG: 0.206 z-score
CTCACCATCATCCTCACTGCGTGCTAG: 0.618 z-score
TTAGGTTTCGGGTTTCGGTTTGTGCTA: 6.76 z-score
GCCGGTATCGGTATCGGGACGTGCTAG: 5 z-score
CTACTTCTGTTTTTGCTTTCGTGCTAG: 2.17 z-score
TTAGGTCTCGGTTTCGGTTCGTGCTAG: 6.17 z-score
TGCTTCCTCTTTTTTGTTCCGTGCTAG: 1.15 z-score
CACGATATCAGTATCGAGACGTGCTAG: 1.22 z-score

Study 2 — target: CCND3, cyclin fold, Cln2 fusion (human); method: yeast growth competition, sequencing; medium: yeast; notes: weak parent motif; baseline: not given; reading: higher = stronger binding; quantity: normalised enrichment score
Starting sequence: E2F1 docking peptide (human); PPVKRRLDFETDH
PPVKRRLDPETDH [F9P]: -0.00614
PPVHRRLDFETDH [K4H]: 0.217
PPVKRFLDFETDH [R6F]: 0.599
PPVKRRLDFPTDH [E10P]: -0.0841
PPVRRRLDFETDH [K4R]: 0.897
PPVKRRLDFMTDH [E10M]: -0.00277
PPVKRRYDFETDH [L7Y]: -0.0557
PPVKRRLDFETTH [D12T]: -0.0944
PPVKRRLDQETDH [F9Q]: 0.319
PPVFRRLDFETDH [K4F]: -0.131
PPCKRRLDFETDH [V3C]: 0.317
PPVKVRLDFETDH [R5V]: 0.31
PPVNRRLDFETDH [K4N]: 0.357
PPVKRRLDFEFDH [T11F]: 0.534
PPVKYRLDFETDH [R5Y]: 0.133
PPVKRRLMFETDH [D8M]: -0.0788
PPVKRKLDFETDH [R6K]: 0.364
PPVKRRLDFKTDH [E10K]: -0.00607
PPVKRRHDFETDH [L7H]: 0.0525
PPVKRRLDFEDDH [T11D]: 0.892
PPVKRRLIFETDH [D8I]: 0.212
PLVKRRLDFETDH [P2L]: 0.0422
PPVKERLDFETDH [R5E]: -0.257
PPVKRRLDFETAH [D12A]: 0.123
PPLKRRLDFETDH [V3L]: 0.0934

Study 3 — target: CREBZF, bZIP domain (human); method: DHFR protein complementation; medium: yeast; baseline: wild-type JUN-FOS pair; reading: higher = stronger binding; quantity: binding fitness
Notes: single substitutions, most at no-binding floor
Starting sequence: JUN, bZIP domain (human); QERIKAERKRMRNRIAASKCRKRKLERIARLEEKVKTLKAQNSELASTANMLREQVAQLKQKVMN; partner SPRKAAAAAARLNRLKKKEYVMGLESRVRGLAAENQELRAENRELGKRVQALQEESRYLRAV
K39R: -1.3 natural log
L45T: -1.51 natural log
E32H: -1.45 natural log
K34L: -1.45 natural log
L45P: -1.49 natural log
T48F: -1.53 natural log
L45V: -1.49 natural log
L31E: -1.56 natural log
R30W: -1.5 natural log
R53L: -1.61 natural log
T48Q: -1.41 natural log
E54N: -1.57 natural log
S43M: -1.29 natural log
A49P: -1.39 natural log
L31T: -1.57 natural log
L45D: -1.48 natural log
E32C: -1.53 natural log
A40V: -1.41 natural log
Q41W: -1.39 natural log

Other studies, line by line
PhoQ, residues 284 288 289 292 302 303 NSMLDC  fold induction (PhoP, residues 12 14 15 18 19 AQALL (Escherichia coli, UniProt P23836); Sort-seq, refers to: YFP reporter; E. coli; PhoQ-PhoP variant library, added: 10 µM Mg2+; baseline: high Mg2+ state, higher = stronger signaling): 15

A few entries again (study 3):
K34L: -1.45 natural log
L45P: -1.49 natural log
T48F: -1.53 natural log
L45V: -1.49 natural log
